Assay results gathered from unrelated publications.
A part holds a random share of what one study measured. Positions count from the first letter of the parent shown.

Study 1 — method: RNA Bind-n-Seq; form: RNA; matrix: in vitro; tested at: 365 nM; baseline: no-protein control; reading: higher = stronger binding
Target: RNA binding protein fox-1 homolog 2, RRM domain, GST-SBP tag (RBFOX2, Homo sapiens, UniProt O43251-10, residues 100-194)
Setting: natural RNA segment, single round, ends assumed
Target sequence (chain): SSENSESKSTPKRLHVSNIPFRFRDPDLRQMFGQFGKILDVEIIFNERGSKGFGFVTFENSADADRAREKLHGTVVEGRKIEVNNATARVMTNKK
`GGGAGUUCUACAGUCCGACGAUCCUACAUGCUUUUUGUAUCACACAGUAUAUGAUGGGGCAUGUGCCAUAGUGCAGGCUUGGGGAGCUUUAAGCCUCAGUUAUAUAACCCACGAAAAACAGAGCCUCCUAGAUUGGAAUUCUCGGGUGCCAA`: “RBNS enrichment (R)” 0.354.
Under “RBNS enrichment (R)”, `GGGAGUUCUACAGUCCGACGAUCGCAGGAGCUGAGGAGGGUGAACAAACCCCGAGGGAGGCCCGGCCCUUGCUCCCGAGUUGGGGGGAGGGGGUGUGGCAACGUGCCCCCCGCAGAGGCCACGCAUGUUUGACUGGAAUUCUCGGGUGCCAA` is recorded as 2.61.
For `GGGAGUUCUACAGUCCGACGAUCUCCACCCUGAUCUGGCCCCUGUUAGCCCAUGAGCCCUCUUUAUGUACCCAUCCUCCCUUUCUGAACCUUCCCUCAGGGUGGGGCUGGAUUAUGGAGGAAGGAAUGGAUCUUGGAAUUCUCGGGUGCCAA`, “RBNS enrichment (R)” read 0.268.
`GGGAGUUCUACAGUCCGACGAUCGCAAAUUUUGUGAAAACAUAACAAUUUGAAGCUUCUGUAAUUUUGAGCACUGCUCUAACAACAAGCAUAAUAUAAAAUUAGUUAGAUUUUGCAAGUCUACAAAUGAGCUCUGGAAUUCUCGGGUGCCAA`: “RBNS enrichment (R)” 0.311.
Under “RBNS enrichment (R)”, `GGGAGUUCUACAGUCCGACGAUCUUACUGGGACACAAUCACCACUCAGCUAGAAUGGAGAUUCAAGGAAAUGGAAGGUACUAGAAACAGACUCCUCCAGCCUCCUCCCCAUAGAAUCCUAAGGGUGGGAAGAAUGGAAUUCUCGGGUGCCAA` is recorded as 0.318.
Under “RBNS enrichment (R)”, `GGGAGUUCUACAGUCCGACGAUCCCACUUGGCUCUGUCCUCCCCAUUUUAGCCACCUCUGUAUUUAUGUUGCUUAUUCGUCUGUUUUUAUGGUUUGUUUUGUUUUUUUACUGGGUUGUGUUUAUAUUCGGGGGUGGAAUUCUCGGGUGCCAA` is recorded as 3.01.
`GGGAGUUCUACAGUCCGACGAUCUAGUUUUCAGUUGCUGAAGUAGCUCAUUUUCUCUUACUAAUGUUUGGUUCCUCAGGGAAGAAUCUCACUUGACUAGAGAGGAGGUGGGAACAGAAGAGAGAAGGAGGCAGUGGAAUUCUCGGGUGCCAA`: “RBNS enrichment (R)” 0.498.
`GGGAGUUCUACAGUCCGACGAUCAAGUUCGGUGUUGGAGCGAUACUCAAUGUAGUCAGUCUACACCUGGACGUGUGGGCCACUUAAGCCCUCCCCACCCCCAUCCUAUUCCUGAAUAAAACCAGGAUAAUGGAUGGAAUUCUCGGGUGCCAA`: “RBNS enrichment (R)” 0.176.

Study 2 — method: RNA Bind-n-Seq; form: RNA; matrix: in vitro; tested at: 200 nM; setting: whole 134-nt RNA, ends assumed; with: 150 mM KCl; baseline: input library; reading: higher = stronger binding
Target: Ras GTPase-activating protein-binding protein 1, full length (G3BP1, Homo sapiens, UniProt Q13283)
Chain of UniProt Q13283 (whole entry, looked up): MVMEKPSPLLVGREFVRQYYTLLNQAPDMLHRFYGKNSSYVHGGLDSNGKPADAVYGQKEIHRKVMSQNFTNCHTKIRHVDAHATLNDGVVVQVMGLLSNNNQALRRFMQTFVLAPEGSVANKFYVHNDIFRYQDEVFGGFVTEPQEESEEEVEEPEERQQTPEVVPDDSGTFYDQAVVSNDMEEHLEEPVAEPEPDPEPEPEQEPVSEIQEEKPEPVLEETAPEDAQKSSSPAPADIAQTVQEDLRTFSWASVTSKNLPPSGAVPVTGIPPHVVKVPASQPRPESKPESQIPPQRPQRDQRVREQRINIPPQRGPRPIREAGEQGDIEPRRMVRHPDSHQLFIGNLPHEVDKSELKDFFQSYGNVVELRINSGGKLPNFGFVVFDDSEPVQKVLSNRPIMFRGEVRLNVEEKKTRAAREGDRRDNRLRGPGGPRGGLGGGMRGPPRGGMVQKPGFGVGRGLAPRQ
The log2 enrichment of `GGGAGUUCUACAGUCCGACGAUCCUCAAGUCCUGUGCUACACAUCGUAUGUACCGAAUCGGGGAGGGAGGGGAGGGAAAGUAUUAUGUUACGCCGUUCGGAUCUGCACUUCCAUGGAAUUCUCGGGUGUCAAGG` is reported as 1.5.
The log2 enrichment of `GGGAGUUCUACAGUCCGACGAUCACCAUGCAGGUGGGCAUCUCUGGGAAGUGGGGCAAGGGGGGGAUAGGGAGGGGGGUAACACUUUGGGAACAGGUGGUCCCAGGUCGUUUCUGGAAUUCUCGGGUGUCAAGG` is reported as 1.27.
For `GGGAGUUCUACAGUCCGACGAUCGUCCUGUGCUACACAUCGUAUGUACCGAAUCGGGUUUUUGGGGUUUUUGGUUUUUGGGAAAGUAUUAUGUUACGCCGUUCGGAUCUGCACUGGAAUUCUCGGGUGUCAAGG`, the log2 enrichment was -0.694.
With `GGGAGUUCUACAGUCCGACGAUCAAGUCCUGUGCUACACAUCGUAUGUACCGAAUCGGAAAAGGAAAAGGGGAAAAGGGAAAGUAUUAUGUUACGCCGUUCGGAUCUGCACUUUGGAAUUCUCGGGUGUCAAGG` the log2 enrichment was -0.933.
`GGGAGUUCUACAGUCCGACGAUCUGGCCCUGGUGGCAUGCGGGGAAGAAGAGGUGGCCUCAUGGAUCGUGGUGGUCCCGGUGGAAUGUUCAGAGGUGGCCGUGGUGGAGACAGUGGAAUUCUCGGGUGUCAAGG` has a log2 enrichment of 0.295.
With `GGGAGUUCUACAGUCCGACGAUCAGUCCUGUGCUACACAUCGUAUGUACCGAAUCGGGCCCCCGGGCCCCCGGCCCCCGGAAAGUAUUAUGUUACGCCGUUCGGAUCUGCACUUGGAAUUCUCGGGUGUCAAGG` the log2 enrichment was -0.502.
For `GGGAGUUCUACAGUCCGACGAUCAGUCCUGUGCUACACAUCGUAUGUACCGAAUCGGGUUUUUUUGGGAAAGGGUUUGGGAAAGUAUUAUGUUACGCCGUUCGGAUCUGCACUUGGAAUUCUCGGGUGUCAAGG`, the log2 enrichment was -0.178.
With `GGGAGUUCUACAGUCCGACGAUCAGUCCUGUGCUACACAUCGUAUGUACCGAAUCGGGAAAAGGGAAAAGGGGAAAAGGGAAAGUAUUAUGUUACGCCGUUCGGAUCUGCACUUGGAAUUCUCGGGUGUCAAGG` the log2 enrichment was -0.0733.
`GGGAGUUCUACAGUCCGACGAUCACCAUGCAGGUGGGCAUCUUUGGGAAGUGGGGCAAGGGGGGGAUAGGGAGGGGGGUAACACUUUGGGAACAGGUGCUCCCAGGUCGUUUCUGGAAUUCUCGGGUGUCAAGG` has a log2 enrichment of 1.34.

Study 3 — method: protein binding microarray; form: double-stranded DNA, one strand shown; matrix: in vitro; tested at: not given; baseline: not given; reading: higher = stronger binding
Target: Histone acetyltransferase KAT6A, winged helix 2, GST fusion (KAT6A, Homo sapiens, UniProt Q92794, residues 85-181)
Setting: 8-mer, flanks averaged, mean of 2 arrays, mostly near background
Target sequence (chain): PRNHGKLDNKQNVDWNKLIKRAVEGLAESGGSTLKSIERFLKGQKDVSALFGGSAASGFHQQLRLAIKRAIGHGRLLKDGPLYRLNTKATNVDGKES
`ACATGGCA` has an E-score of 0.0208.
With `GGGGCCGA` the E-score was 0.146.
For `AGCGTAAG`, the E-score was -0.0179.
With `CAGTGCGA` the E-score was -0.0783.
For `TCGGGAAA`, the E-score was 0.197.
With `CGCAATCA` the E-score was 0.165.
With `ATTATTGC` the E-score was -0.00996.
`CAGTAGCC` gave an E-score of 0.0639.
The E-score of `AACCCTTG` is reported as -0.0565.
For `CTGTTTAC`, the E-score was -0.0795.
The E-score of `ATCGGACA` is reported as -0.0338.
`CGGTGGCC` has an E-score of 0.17.
`CTAACCAC` has an E-score of -0.0352.
The E-score of `AAAAGATA` is reported as 0.066.
The E-score of `AATGGAAG` is reported as 0.0548.
`GCGGCCGC` has an E-score of 0.238.
With `GGGGAAAA` the E-score was -0.0814.
For `GTGAAAGA`, the E-score was 0.0122.
The E-score of `TAGGTTCA` is reported as 0.0963.
`CATACAGA` gave an E-score of -0.0156.
`CATACAGG` has an E-score of -0.0732.
`ACTTAATA` gave an E-score of 0.0564.
For `AGGGCGCG`, the E-score was 0.215.
`AATGAACG` gave an E-score of -0.196.
For `GGGTGCCA`, the E-score was 0.0208.

Study 4 — target: CCNA1, cyclin fold, Cln2 fusion (human); method: yeast growth competition, sequencing; matrix: yeast; setting: weak parent motif; baseline: not given; reading: higher = stronger binding
Starting sequence: PKN2 docking peptide (human); VSAVRKLDFSDTM
`VSANRKLDFSDTM [V4N]` — result for “normalised enrichment score”: 0.681.
Under “normalised enrichment score”, `VSAVRKLDLSDTM [F9L]` is recorded as 0.0271.
`VSAVRKLDDSDTM [F9D]` — result for “normalised enrichment score”: -0.0497.
Under “normalised enrichment score”, `VSAVRKLDESDTM [F9E]` is recorded as 0.16.
`VSPVRKLDFSDTM [A3P]`: “normalised enrichment score” -0.458.
`VSAVRKLDFSDEM [T12E]` — result for “normalised enrichment score”: 0.929.
`VSAVRKLDFLDTM [S10L]` — result for “normalised enrichment score”: 0.456.
Under “normalised enrichment score”, `VSAVRKLDQSDTM [F9Q]` is recorded as -0.0894.
`VWAVRKLDFSDTM [S2W]` — result for “normalised enrichment score”: 0.731.
For `VSAVRKLDFSDGM [T12G]`, “normalised enrichment score” read 0.762.
For `VSYVRKLDFSDTM [A3Y]`, “normalised enrichment score” read 0.149.
`VSEVRKLDFSDTM [A3E]`: “normalised enrichment score” -0.388.
For `VSAVRTLDFSDTM [K6T]`, “normalised enrichment score” read 0.391.
Under “normalised enrichment score”, `VYAVRKLDFSDTM [S2Y]` is recorded as 0.69.
For `VSAVRKLDPSDTM [F9P]`, “normalised enrichment score” read 0.262.
`VSAVRKLDFSDSM [T12S]`: “normalised enrichment score” 1.08.
`VSAVRKLDFSCTM [D11C]` — result for “normalised enrichment score”: 0.828.
For `VSAVGKLDFSDTM [R5G]`, “normalised enrichment score” read -0.342.
For `VSAVRILDFSDTM [K6I]`, “normalised enrichment score” read 0.218.
For `VSAVRKLDFSDCM [T12C]`, “normalised enrichment score” read 1.79.
Under “normalised enrichment score”, `VSAVRKGDFSDTM [L7G]` is recorded as -0.17.
Under “normalised enrichment score”, `VSGVRKLDFSDTM [A3G]` is recorded as 0.102.
`VSAVRKFDFSDTM [L7F]`: “normalised enrichment score” -0.0286.
`VSAVRKNDFSDTM [L7N]` — result for “normalised enrichment score”: 0.335.
`VSAVRKLYFSDTM [D8Y]` — result for “normalised enrichment score”: 0.139.

Some of these lines once more (study 2):
The log2 enrichment of `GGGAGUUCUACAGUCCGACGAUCCUCAAGUCCUGUGCUACACAUCGUAUGUACCGAAUCGGGGAGGGAGGGGAGGGAAAGUAUUAUGUUACGCCGUUCGGAUCUGCACUUCCAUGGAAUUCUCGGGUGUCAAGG` is reported as 1.5.
The log2 enrichment of `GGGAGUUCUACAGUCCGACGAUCACCAUGCAGGUGGGCAUCUCUGGGAAGUGGGGCAAGGGGGGGAUAGGGAGGGGGGUAACACUUUGGGAACAGGUGGUCCCAGGUCGUUUCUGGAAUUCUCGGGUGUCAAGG` is reported as 1.27.
For `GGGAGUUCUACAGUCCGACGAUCGUCCUGUGCUACACAUCGUAUGUACCGAAUCGGGUUUUUGGGGUUUUUGGUUUUUGGGAAAGUAUUAUGUUACGCCGUUCGGAUCUGCACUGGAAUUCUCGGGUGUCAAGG`, the log2 enrichment was -0.694.
With `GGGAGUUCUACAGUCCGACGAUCAAGUCCUGUGCUACACAUCGUAUGUACCGAAUCGGAAAAGGAAAAGGGGAAAAGGGAAAGUAUUAUGUUACGCCGUUCGGAUCUGCACUUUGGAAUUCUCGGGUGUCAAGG` the log2 enrichment was -0.933.
`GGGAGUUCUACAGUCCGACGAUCUGGCCCUGGUGGCAUGCGGGGAAGAAGAGGUGGCCUCAUGGAUCGUGGUGGUCCCGGUGGAAUGUUCAGAGGUGGCCGUGGUGGAGACAGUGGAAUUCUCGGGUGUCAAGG` has a log2 enrichment of 0.295.
With `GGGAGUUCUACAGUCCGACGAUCAGUCCUGUGCUACACAUCGUAUGUACCGAAUCGGGCCCCCGGGCCCCCGGCCCCCGGAAAGUAUUAUGUUACGCCGUUCGGAUCUGCACUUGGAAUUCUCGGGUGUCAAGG` the log2 enrichment was -0.502.
For `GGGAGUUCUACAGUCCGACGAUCAGUCCUGUGCUACACAUCGUAUGUACCGAAUCGGGUUUUUUUGGGAAAGGGUUUGGGAAAGUAUUAUGUUACGCCGUUCGGAUCUGCACUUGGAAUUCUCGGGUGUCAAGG`, the log2 enrichment was -0.178.
With `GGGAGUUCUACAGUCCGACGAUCAGUCCUGUGCUACACAUCGUAUGUACCGAAUCGGGAAAAGGGAAAAGGGGAAAAGGGAAAGUAUUAUGUUACGCCGUUCGGAUCUGCACUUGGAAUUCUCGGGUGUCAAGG` the log2 enrichment was -0.0733.
`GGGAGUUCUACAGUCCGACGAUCACCAUGCAGGUGGGCAUCUUUGGGAAGUGGGGCAAGGGGGGGAUAGGGAGGGGGGUAACACUUUGGGAACAGGUGCUCCCAGGUCGUUUCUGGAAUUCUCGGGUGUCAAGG` has a log2 enrichment of 1.34.
